Published values of several laboratories.
Protocols differ between the studies behind these lines. Values joined by “and” are separate records of one study, mostly repeats; a detail may differ.
UniProt P06241, sequence (whole entry, looked up): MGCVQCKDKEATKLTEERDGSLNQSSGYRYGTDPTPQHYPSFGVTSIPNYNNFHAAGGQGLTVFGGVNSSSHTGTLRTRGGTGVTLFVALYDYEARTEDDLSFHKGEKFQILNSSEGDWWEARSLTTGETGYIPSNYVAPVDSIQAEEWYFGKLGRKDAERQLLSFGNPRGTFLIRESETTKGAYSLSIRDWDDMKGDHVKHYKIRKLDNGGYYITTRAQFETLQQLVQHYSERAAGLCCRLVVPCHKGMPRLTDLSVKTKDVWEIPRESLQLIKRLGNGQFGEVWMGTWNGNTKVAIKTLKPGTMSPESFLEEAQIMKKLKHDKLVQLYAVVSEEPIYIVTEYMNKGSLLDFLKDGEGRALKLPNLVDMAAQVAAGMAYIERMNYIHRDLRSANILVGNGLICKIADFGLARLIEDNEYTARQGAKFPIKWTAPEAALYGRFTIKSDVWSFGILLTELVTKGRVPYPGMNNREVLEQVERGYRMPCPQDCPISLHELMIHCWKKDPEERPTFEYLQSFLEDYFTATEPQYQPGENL

`CS(=O)(=O)c1cccc(-c2nnc(NC(=O)c3ccc(-c4ccccc4)cc3)o2)c1` gave an IC50 of 35.2 µM (K562; cell growth or viability).
The CC50 of `CN(CC(=O)Nc1ccc(N(C)c2ccc(Cl)cc2)cc1Cl)c1ccccc1N1CCCC1=O` is reported as greater than 40 µM (HepG2; cell growth or viability, ATP luminescence; 48 h).
The viability of `N#CC(C(=O)Nc1cccc(C(F)(F)F)c1)=C1Sc2nc3ccc(S(=O)(=O)N4CCCC4)cc3nc2S1` is reported as 96.1% (WI-38; cell growth or viability, MTT; 6.25 µM, 24 h).
`O=C(O)c1ccccc1O` gave an IC50 of greater than 200 µM (K562; cell growth or viability).
For `Nc1ccn([C@@H]2O[C@H](CO)[C@@H](O)C2(F)F)c(=O)n1`, the viability was 26.4% (HEK293; cell growth or viability, MTT; 5 µg/mL, 48 h).
The IC50 of `O=C(COC(=O)c1n[nH]c2ccccc12)Nc1ccc(N2CCCCC2)cc1` is reported as 41.6 µM (K562; cell growth or viability).
`Cc1ccc(N(C)c2ccc(NC(=O)CN(C)c3ccccc3N3CCCC3=O)nc2)cc1` has a CC50 of greater than 40 µM (HepG2; cell growth or viability, ATP luminescence; 48 h).
The remaining binding of `CCCCC(=O)Nc1ccc(-c2ccc3ncn(CCC)c(=O)c3c2)cn1` is reported as 100% (Tyrosine-protein kinase Fyn (FYN, Homo sapiens, UniProt P06241); binding, competition with immobilised ligand; 0.5 µM).
With `CSc1nc(C)c(Cl)c(O)n1` the IC50 was greater than 670 µM (K562; cell growth or viability).
`C=C(C)[C@H](CC=C(C)C)Cc1c(O)cc(O)c2c1O[C@H](c1ccc(O)cc1O)CC2=O` has an IC50 of 32.5 µM (COLO 205; cell growth or viability, MTT; 48 h).
`COc1ccc(S(=O)(=O)ON=C2C=C(C)C(=O)C(C)=C2)cc1` has a CC50 of 1.91 µM (MDA-MB-435S; cell growth or viability).
`COCCCNC(=N)c1ccc(NC(=O)c2ccc(C(=O)Nc3ccc(C(=N)NCCCOC)cc3)cc2)cc1` has an IC50 of 56.3 µM (K562; cell growth or viability).
The CC50 of `Cc1ccc(Oc2ccc(NC(=O)CNc3ccccc3N3CCOC3=O)cc2)cc1` is reported as 8.6 µM (HepG2; cell growth or viability, ATP luminescence; 48 h).
For `O=C(C[n+]1cc(-c2ccc(Cl)cc2)n2c1CCC2)Nc1ccc(Cl)c(Cl)c1`, the IC50 was 11.9 µM (K562; cell growth or viability).
For `Cc1ccc(N(C)c2ccc(NC(=O)CN(C)c3ccc(F)cc3N3CCCC3=O)cc2)cc1`, the CC50 was greater than 40 µM (HepG2; cell growth or viability, ATP luminescence; 48 h).
With `COc1cc(N2CCC(N3CCN(C)CC3)CC2)ccc1Nc1ncc(Cl)c(Nc2ccccc2P(C)(C)=O)n1` the viability was 47% and 51% (Ba/F3 EML4-ALK; cell growth or viability, CCK-8; 1 µM, 6 h).
For `CN(CC(=O)Nc1ccc(N(C)c2ccc(Cl)cc2)cc1)c1ccccc1N1CCCC1=O`, the CC50 was greater than 40 µM (HepG2; cell growth or viability, ATP luminescence; 48 h).
With `CC(=O)c1nn(-c2ccc(C)cc2)/c(=N/N=C(\C)c2ccc(NC(=O)c3ccccc3)cc2)s1` the viability was 5.12% (WI-38; cell growth or viability, MTS; 0.625 µM, 24 h).
The CC50 of `CN(CC(=O)Nc1ccc(N(C)c2ccc(Cl)c(F)c2)cc1)c1ccccc1N1CCCC1=O` is reported as greater than 40 µM (HepG2; cell growth or viability, ATP luminescence; 48 h).
For `O=C1NC(=O)C(Cc2ccc(O)cc2)S1` (stereo not shown), the IC50 was greater than 574 µM (K562; cell growth or viability).
For `O=C(CNc1ccccc1N1CCCC1=O)Nc1ccc(Oc2ccc(F)cc2)cc1`, the CC50 was 5.3 µM (HepG2; cell growth or viability, ATP luminescence; 48 h).
`COc1cccc(NC(=O)Nc2ccc(Oc3nc4ccccc4n4cnnc34)cc2)c1` has a viability of 78.4% (WI-38; cell growth or viability, MTT; 25 µM, 24 h).

Some of these lines once more:
The IC50 of `O=C(COC(=O)c1n[nH]c2ccccc12)Nc1ccc(N2CCCCC2)cc1` is reported as 41.6 µM (K562; cell growth or viability).
The CC50 of `CN(CC(=O)Nc1ccc(N(C)c2ccc(Cl)c(F)c2)cc1)c1ccccc1N1CCCC1=O` is reported as greater than 40 µM (HepG2; cell growth or viability, ATP luminescence; 48 h).
